Assay results gathered from unrelated publications.
Organism: Mycobacterium tuberculosis

SMILES | observed | method | strain | time | setting | MIC
Cc1nc(=O)c2cc(CN(C)c3cccc(C(=O)N[C@@]4(C(=O)O)CCC[C@H](C(=O)O)C4)c3)ccc2[nH]1 |  |  | pptT knockdown with ATc |  |  | 26.4 µM
Cc1ccc2nc(C)c(C(=O)NCc3cccs3)n2c1 | microbial growth | resazurin | H37RV |  |  | 0.19 µM
COc1ccc(-c2cc(=O)c3c(O)c(OC)c(O)cc3o2)cc1 | microbial growth |  | ATCC27294 H37RV |  |  | 250 µg/mL
Cc1ccc(CNC(=O)Cc2c(C)nc3ccc(C)cn23)cc1 |  |  | H37Rv, replicating |  |  | 2 to 4 µM
CC1=CC2(C)C(=C(C)C3C4CC(C)CC(C)C4C4Oc5ccc(cc5)CC5(O)NC(=O)C(=C(O)C2C43)C5Nc2ncnc3c2ncn3C2OC(CO)C(O)C2O)C1C (centres unmarked) | microbial growth | resazurin | H37RV |  |  | > 100 µM
CC(=O)c1sc(N/N=C/c2c(-c3ccc(C#N)cc3)nc3ncccn23)nc1C |  | MABA | H37Rv ATCC 27294 |  |  | 6.25 µg/mL
O=C1C(O)=C(I)C(=O)c2ccccc21 |  | resazurin microplate | H37Rv | 7 days + 24 h |  | > 147 µM
c1cc2c(s1)CCOC21CCN(Cc2ccc3c(c2)OCCO3)CC1 | microbial growth | resazurin | H37RV |  |  | 0.38 µM
CC(C)(C)OC(=O)NCCC[C@H](NC(=O)c1ccc(NCc2ccc3nc(N)nc(N)c3c2Cl)cc1)C(=O)O |  |  | pptT knockdown with ATc |  |  | < 0.2 µM
O=C(NC12CC3CC(CC(C3)C1)C2)c1cc2cc(Cl)ccc2[nH]1 | microbial growth | resazurin | H37RV |  |  | 0.47 µM
CC(=O)c1sc(N/N=C/c2c(-c3ccccc3)nc3ncccn23)nc1C |  | MABA | H37Rv ATCC 27294 |  |  | 12.5 µg/mL
Cc1cc(C)c2cc(C(=O)NC3CCCCCCC3)[nH]c2c1 | microbial growth |  | H37RV |  |  | 0.0039 µg/mL
Nc1nc(-c2ccc(-n3cccc3)cc2)cc(-c2c(Cl)cccc2Cl)n1 | microbial growth | resazurin | H37RV | 7 days |  | 12.5 µg/mL
CC1C(=NNC(=O)c2ccncc2)C(C)C(c2ccc(Cl)cc2)OC1c1ccc(Cl)cc1 (centres unmarked) | microbial growth | resazurin | H37RV |  |  | 1.56 µg/mL
CC(=O)NC1C(OC2OC(CC(O)C3OC(n4ccc(=O)[nH]c4=O)C(O)C3O)C(O)C(O)C2NC(=O)C=CCCCCCCCCCC(C)C)OC(CO)C(O)C1O (centres unmarked) |  |  | H37Rv |  |  | > 50 µg/mL
CCc1ccn2c(C(=O)NCc3ccc(C)cc3)c(C)nc2c1 |  |  | H37Rv, replicating |  |  | 0.003 to 0.05 µM
CCOC(=O)c1sc(N/N=C/c2c(-c3ccc(OC)cc3)nc3ncccn23)nc1C |  | MABA | H37Rv ATCC 27294 |  |  | 1.6 µg/mL
NC(=O)C(CC(=O)c1cccc(Oc2ccccc2)c1)c1ccc(F)cc1 (centres unmarked) | microbial growth | resazurin | H37RV |  |  | 50 µg/mL
CO[C@H]1[C@@H](O)[C@H](n2ccc(=O)[nH]c2=O)O[C@@H]1[C@@H](O[C@H]1OC(C(=O)N[C@H]2N=C(c3ccccc3)c3ccccc3NC2=O)=C[C@H](O)[C@@H]1O)C(N)=O |  | low-oxygen recovery | H37Rv pFCA-luxAB |  | non-replicating | > 100 µg/mL
CC1C(=NOCc2cc(-c3ccc(Cl)cc3)no2)C(C)C(c2ccc(Br)cc2)OC1c1ccc(Br)cc1 (centres unmarked) | microbial growth | resazurin | H37RV |  |  | 3.12 µg/mL
CC(C)=CCC/C(C)=C/CC/C(C)=C/CNCCOC1C2CC3CC(C2)CC1C3 (centres unmarked) |  |  | H37Rv |  |  | 0.39 µg/mL
CCOC(=O)/C=C1/SC(N/N=C/c2c(-c3ccc(Br)cc3)nc3ncccn23)=NC1=O |  | MABA | H37Rv ATCC 27294 |  |  | 25 µg/mL
NC(=O)C(CC(=O)c1cccc(Oc2ccccc2)c1)c1ccc(Cl)cc1 (centres unmarked) | microbial growth | resazurin | H37RV |  |  | > 100 µg/mL
Cc1ccc(C2OC(c3ccc(C)cc3)C(C)C(=NOCc3cn(-c4ccccc4)nn3)C2C)cc1 (centres unmarked) | microbial growth | resazurin | H37RV |  |  | 6.25 µg/mL
CC1=NN(CNc2ccc(C(=O)O)c(O)c2)C(=O)/C1=N/Nn1c(-c2ccccc2)nc2ccccc2c1=O | microbial growth | resazurin | H37RV |  |  | 48.9 µM

SMILES | observed | method | strain | time | setting | MIC
O=C1c2ccccc2C(=O)N1c1nnc(-c2ccccc2Cl)s1 | microbial growth |  | H37RV |  |  | > 200 µM
Cc1[nH]c(=O)c(CNC(=O)c2ccc(C(F)(F)F)nc2)c2c1CCCC2 | microbial growth | resazurin | H37RV |  |  | 1.2 to 3 µg/mL
CC(=O)c1sc(N/N=C/c2c(-c3ccc(Br)cc3)nc3ncccn23)nc1C |  | MABA | H37Rv ATCC 27294 |  |  | 6.25 µg/mL
O=C(C=Cc1cccs1)c1ccc(-n2cccc2)cc1 | microbial growth | resazurin | H37RV | 7 days |  | 6.25 µg/mL
C#CCN(Cc1ccc2nc(N)nc(N)c2c1)c1ccc(C(=O)N[C@@H](CCC(=O)O)C(=O)O)cc1 |  |  | pptT knockdown with ATc |  |  | 3.7 µM
Cc1cc(C2CC2)[nH]c(=O)c1CNC(=O)c1ccc(C(F)(F)F)nc1 | microbial growth | resazurin | H37RV |  |  | > 20 µg/mL
Cc1c(CN2CCN(C)CC2)cc(-c2ccc(Cl)cc2)n1-c1ccc(Cl)cc1 | microbial growth |  | H37RV |  |  | 2 µg/mL
Cc1cccc(-c2nc(Nc3ccncn3)c3sccc3n2)n1 | microbial growth | resazurin | H37RV |  |  | 0.47 µM
O=c1nc(N2CCC(Oc3ccccc3Br)CC2)sc2c([N+](=O)[O-])cc(C(F)(F)F)cc12 | microbial growth |  | H37RA |  |  | 0.031 µM
CC(C)=CCC/C(C)=C/CNCCOC1C2CC3CC(C2)CC1C3 (centres unmarked) |  |  | H37Rv |  |  | 0.035 µg/mL
CCOC(=O)/C=C1/SC(N/N=C/c2c(-c3ccc(C)cc3)nc3ncccn23)=NC1=O |  | MABA | H37Rv ATCC 27294 |  |  | 12.5 µg/mL
Cc1cc(C)c2cc(C(=O)NC3CCCCCC3)[nH]c2c1 | microbial growth |  | H37RV |  |  | 0.0156 to 0.0313 µg/mL
COC(=O)[C@@H](CCCNC(=O)OC(C)(C)C)NC(=O)c1ccc(NCc2ccc3nc(N)nc(N)c3c2Cl)cc1 |  |  | pptT knockdown with ATc |  |  | < 0.1 µM
Cc1ccc(CNC(=O)C(=O)c2c(C)nc3ccc(C)cn23)cc1 |  |  | H37Rv, replicating |  |  | 2 to 4 µM
O=c1nc(N2CCC(Oc3c(F)cccc3F)CC2)sc2c([N+](=O)[O-])cc(C(F)(F)F)cc12 | microbial growth |  | H37RA |  |  | 0.125 µM
CC(C)c1ccc(-c2cc(-c3ccc(-n4cccc4)cc3)nc(N)n2)cc1 | microbial growth | resazurin | H37RV | 7 days |  | 3.12 µg/mL
CCc1ccn2c(C(=O)NC(C)c3ccccc3)c(C)nc2c1 (centres unmarked) |  |  | H37Rv, replicating |  |  | 2 to 3 µM
COc1ccc(-c2nc3ncccn3c2/C=N/Nc2nc(C)c(C(C)=O)s2)cc1 |  | MABA | H37Rv ATCC 27294 |  |  | 12.5 µg/mL
CCOC(=O)CC[C@@H](NC(=O)c1ccc(N(C)Cc2ccc3[nH]c(C)nc(=O)c3c2)s1)C(=O)OCC |  |  | pptT knockdown with ATc |  |  | 75.7 µM
Cc1cccc(-c2nc(Nc3ccncn3)c3c(C)csc3n2)n1 | microbial growth | resazurin | H37RV |  |  | 0.76 µM
CC(C)=CCNCCOC1C2CC3CC(C2)CC1C3 (centres unmarked) |  |  | H37Rv |  |  | 3.1 µg/mL
Cc1ccc2nc(C)c(C(=O)NCc3ccccc3)n2c1 |  |  | H37Rv, replicating |  |  | 0.003 to 0.05 µM
O=c1nc(N2CCC(Oc3ccccc3C(F)(F)F)CC2)sc2c([N+](=O)[O-])cc(C(F)(F)F)cc12 | microbial growth |  | H37RA |  |  | 0.004 µM
CCc1ccc([C@@H]2C[C@H](C(F)(F)F)n3ncc(C(=O)NCc4ccc(OC)cc4)c3N2)cc1 | microbial growth | resazurin | H37RV |  |  | 0.25 µM
CCOC(=O)c1sc(N/N=C/c2c(-c3ccc(Cl)cc3)nc3ncccn23)nc1C |  | MABA | H37Rv ATCC 27294 |  |  | 6.25 µg/mL
